Experimental data pooled from the literature.
Every numbered part comes from another study and shows a few of its results, in no order. Values joined by “and” are separate records of one study, mostly repeats; a detail may differ.
UniProt Q9Y4K4, sequence (whole entry, looked up): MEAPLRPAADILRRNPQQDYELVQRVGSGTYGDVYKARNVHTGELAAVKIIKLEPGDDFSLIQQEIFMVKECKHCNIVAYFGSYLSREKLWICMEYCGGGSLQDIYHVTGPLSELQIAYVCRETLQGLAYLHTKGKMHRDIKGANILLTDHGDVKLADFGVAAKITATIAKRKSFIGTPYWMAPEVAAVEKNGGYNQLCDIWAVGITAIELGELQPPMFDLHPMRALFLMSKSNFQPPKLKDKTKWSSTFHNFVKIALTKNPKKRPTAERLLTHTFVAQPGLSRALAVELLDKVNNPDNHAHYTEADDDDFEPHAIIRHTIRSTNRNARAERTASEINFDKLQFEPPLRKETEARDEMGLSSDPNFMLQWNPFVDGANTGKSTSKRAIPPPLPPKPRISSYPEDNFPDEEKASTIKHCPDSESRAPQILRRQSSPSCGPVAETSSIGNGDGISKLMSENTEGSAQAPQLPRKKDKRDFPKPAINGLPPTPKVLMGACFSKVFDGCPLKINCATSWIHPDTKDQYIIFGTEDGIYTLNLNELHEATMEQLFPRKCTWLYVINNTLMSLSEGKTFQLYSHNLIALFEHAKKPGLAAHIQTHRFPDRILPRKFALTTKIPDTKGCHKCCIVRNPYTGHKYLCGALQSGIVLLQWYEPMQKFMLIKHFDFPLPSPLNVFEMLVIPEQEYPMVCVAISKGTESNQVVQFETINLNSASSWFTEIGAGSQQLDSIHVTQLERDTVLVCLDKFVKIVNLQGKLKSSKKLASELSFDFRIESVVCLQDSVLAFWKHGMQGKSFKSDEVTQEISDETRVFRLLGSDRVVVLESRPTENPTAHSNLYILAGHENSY
UniProt Q9UL54, sequence (whole entry, looked up): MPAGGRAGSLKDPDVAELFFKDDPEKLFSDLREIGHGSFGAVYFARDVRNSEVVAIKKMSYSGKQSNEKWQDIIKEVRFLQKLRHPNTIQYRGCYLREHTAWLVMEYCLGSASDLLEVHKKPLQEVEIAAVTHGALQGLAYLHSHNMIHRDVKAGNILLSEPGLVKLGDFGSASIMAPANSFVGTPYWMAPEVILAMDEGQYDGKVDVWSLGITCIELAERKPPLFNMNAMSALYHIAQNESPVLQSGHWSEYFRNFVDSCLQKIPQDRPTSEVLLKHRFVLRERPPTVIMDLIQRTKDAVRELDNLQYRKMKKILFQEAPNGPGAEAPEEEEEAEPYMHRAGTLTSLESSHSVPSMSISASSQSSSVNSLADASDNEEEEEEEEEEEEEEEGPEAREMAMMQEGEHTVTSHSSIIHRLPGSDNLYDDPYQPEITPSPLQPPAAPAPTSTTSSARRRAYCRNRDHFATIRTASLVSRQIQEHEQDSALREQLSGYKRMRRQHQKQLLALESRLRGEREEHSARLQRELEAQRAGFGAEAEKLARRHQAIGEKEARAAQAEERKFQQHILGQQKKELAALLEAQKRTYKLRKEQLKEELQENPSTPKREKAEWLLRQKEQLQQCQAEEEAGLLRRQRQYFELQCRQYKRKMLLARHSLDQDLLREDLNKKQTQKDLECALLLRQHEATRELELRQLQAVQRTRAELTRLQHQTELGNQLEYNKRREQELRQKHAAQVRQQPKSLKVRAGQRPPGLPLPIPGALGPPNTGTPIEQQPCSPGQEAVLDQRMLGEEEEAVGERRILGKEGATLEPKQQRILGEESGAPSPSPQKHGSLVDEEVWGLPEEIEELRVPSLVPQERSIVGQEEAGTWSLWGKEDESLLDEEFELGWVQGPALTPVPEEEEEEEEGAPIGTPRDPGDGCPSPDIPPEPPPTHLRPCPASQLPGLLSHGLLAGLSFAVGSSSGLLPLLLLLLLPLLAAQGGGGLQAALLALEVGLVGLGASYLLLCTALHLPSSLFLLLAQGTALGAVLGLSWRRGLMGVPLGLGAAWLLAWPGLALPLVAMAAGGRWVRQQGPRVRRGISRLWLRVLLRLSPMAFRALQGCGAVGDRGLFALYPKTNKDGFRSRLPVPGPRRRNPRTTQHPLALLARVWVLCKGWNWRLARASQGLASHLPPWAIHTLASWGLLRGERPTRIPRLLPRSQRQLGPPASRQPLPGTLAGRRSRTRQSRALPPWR

Set 1 — observed: enzyme activity; action: inhibitor; concentration: 77 µM; relative to: untreated
Target: DNA polymerase theta, ATPase domain (POLQ, Homo sapiens, UniProt O75417)
UniProt O75417, sequence (whole entry, unmodified, looked up): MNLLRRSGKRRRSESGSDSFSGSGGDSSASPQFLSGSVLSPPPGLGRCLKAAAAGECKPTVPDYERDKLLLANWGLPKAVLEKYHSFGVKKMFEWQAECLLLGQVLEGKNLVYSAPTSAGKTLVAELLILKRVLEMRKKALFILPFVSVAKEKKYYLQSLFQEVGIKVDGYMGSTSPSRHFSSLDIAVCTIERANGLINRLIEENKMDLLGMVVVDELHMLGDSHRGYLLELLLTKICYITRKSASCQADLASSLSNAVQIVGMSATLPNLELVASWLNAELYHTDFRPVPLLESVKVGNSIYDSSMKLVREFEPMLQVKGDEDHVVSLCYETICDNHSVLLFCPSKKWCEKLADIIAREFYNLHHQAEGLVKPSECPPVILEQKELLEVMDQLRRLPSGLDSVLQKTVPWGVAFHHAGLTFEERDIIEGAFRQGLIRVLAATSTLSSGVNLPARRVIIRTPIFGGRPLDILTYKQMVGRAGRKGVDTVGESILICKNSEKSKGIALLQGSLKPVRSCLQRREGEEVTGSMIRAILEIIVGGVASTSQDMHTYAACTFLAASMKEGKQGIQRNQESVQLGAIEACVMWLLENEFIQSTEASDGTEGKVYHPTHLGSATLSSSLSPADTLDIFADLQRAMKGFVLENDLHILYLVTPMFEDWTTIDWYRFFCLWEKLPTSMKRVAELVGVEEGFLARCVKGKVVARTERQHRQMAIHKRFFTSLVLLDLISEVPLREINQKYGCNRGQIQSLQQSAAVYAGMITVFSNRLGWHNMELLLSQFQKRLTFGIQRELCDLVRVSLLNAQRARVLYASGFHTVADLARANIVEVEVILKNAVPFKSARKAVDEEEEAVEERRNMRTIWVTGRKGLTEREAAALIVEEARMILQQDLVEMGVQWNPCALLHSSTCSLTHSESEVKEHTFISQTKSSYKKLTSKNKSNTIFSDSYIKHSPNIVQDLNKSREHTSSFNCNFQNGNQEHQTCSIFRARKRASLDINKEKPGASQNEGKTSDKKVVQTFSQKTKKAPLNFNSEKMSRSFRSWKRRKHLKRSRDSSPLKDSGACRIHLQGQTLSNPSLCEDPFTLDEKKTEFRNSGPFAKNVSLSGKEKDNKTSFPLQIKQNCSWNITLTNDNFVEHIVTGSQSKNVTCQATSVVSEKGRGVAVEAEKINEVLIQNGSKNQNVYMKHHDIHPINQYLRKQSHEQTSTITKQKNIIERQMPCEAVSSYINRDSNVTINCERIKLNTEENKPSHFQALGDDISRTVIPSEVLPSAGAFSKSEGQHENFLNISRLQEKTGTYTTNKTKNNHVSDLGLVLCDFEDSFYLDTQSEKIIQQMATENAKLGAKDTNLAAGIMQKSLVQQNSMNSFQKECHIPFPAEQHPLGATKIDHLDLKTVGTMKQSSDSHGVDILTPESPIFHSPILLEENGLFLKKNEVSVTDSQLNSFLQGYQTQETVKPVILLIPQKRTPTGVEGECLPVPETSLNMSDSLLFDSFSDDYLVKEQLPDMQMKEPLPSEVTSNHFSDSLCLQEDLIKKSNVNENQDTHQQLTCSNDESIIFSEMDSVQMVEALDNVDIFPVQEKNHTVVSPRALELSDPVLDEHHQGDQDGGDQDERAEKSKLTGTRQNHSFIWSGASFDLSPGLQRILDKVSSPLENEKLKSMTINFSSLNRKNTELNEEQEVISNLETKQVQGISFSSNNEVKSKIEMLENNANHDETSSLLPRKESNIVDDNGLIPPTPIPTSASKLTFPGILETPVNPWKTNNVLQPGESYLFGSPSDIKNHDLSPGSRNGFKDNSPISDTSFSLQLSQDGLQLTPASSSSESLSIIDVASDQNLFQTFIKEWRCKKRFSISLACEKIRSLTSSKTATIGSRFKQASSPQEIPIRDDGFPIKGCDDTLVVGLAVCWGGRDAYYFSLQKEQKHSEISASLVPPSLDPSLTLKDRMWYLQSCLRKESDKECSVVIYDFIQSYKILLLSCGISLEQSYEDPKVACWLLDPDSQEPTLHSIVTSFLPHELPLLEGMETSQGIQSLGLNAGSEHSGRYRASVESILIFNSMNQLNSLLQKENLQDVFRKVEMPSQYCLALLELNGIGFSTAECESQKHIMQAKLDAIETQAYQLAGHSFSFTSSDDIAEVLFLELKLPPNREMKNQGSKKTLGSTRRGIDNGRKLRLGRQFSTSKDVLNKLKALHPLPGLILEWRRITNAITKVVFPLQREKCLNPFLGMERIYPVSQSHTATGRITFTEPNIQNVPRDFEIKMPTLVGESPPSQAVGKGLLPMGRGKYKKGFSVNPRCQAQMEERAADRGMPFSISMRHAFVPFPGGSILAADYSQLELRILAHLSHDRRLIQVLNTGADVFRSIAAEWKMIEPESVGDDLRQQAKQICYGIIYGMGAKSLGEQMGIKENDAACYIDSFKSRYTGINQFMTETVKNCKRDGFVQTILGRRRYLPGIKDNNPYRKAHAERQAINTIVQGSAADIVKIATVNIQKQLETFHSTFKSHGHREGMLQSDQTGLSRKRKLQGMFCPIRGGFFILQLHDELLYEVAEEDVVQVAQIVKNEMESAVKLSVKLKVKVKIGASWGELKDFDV
| SMILES | remaining activity [%] |
| --- | --- |
| O=C(O)[C@H]1O[C@@H](Oc2cc3oc(-c4ccccc4)cc(=O)c3c(O)c2O)[C@H](O)[C@@H](O)[C@@H]1O | 93.3 |
| Nc1ncnc2c1c(-c1cccc(OCc3ccccc3)c1)cn2[C@H]1C[C@@H](CN2CCC2)C1 | 89.8 |
| Cc1cccc(Nc2ccccc2C(=O)O)c1C | 98.2 |
| COc1cc2ncnc(Nc3ccc(NC(=O)c4ccccc4)cc3)c2cc1OC | 90.6 |
| CCC(=O)c1c(O)cc(O)cc1O | 104 |

Set 2 — observed: enzyme activity; action: inhibitor; concentration: 0.5 µM; relative to: control
Target: Dual specificity mitogen-activated protein kinase kinase 1 (MAP2K1, Homo sapiens, UniProt Q02750)
UniProt Q02750, sequence (whole entry, looked up): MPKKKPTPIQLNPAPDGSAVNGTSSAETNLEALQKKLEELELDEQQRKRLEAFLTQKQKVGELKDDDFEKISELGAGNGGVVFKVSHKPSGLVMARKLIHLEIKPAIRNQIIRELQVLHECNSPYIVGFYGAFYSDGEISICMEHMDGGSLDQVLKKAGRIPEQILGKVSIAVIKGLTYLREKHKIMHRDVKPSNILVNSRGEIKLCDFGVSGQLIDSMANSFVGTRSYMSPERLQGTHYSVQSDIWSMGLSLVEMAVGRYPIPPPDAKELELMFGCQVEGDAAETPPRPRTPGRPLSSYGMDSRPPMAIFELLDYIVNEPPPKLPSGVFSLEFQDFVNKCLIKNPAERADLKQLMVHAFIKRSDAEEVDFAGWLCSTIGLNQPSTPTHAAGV
| SMILES | remaining activity [%] |
| --- | --- |
| Cc1ccc(Nc2nccc(N(C)c3ccc4c(C)n(C)nc4c3)n2)cc1S(N)(=O)=O | 106 |
| CC(C)[C@H](CO)Nc1nc(Nc2cc(N)cc(Cl)c2)c2ncn(C(C)C)c2n1 | 91.3 |
| OCC(O)CCON=C1C(c2c(O)[nH]c3ccccc23)=Nc2ccccc21 (stereo not drawn) | 99.7 |
| COc1ccc(C(=O)Nc2sc3c(c2C(N)=O)CCCC3)cc1OC | 99.1 |
| Oc1ccc(-c2nc(-c3ccncc3)c(-c3ccc(F)cc3)[nH]2)cc1 | 93 |
| COc1cc2ncnc(Nc3ccc(F)c(Cl)c3)c2cc1OCCCN1CCOCC1 | 107 |
| Cn1c2ccccc2c2c3c(c4c5ccccc5n(CCC#N)c4c21)CNC3=O | 90.2 |
| O=S(=O)(c1cccc2cnccc12)N1CCCNCC1 | 83 |
| Cc1nc(-c2ccccc2)c(-c2ccncc2)o1 | 90.7 |
| Nc1ncnc2n[nH]c(Nc3ccc(F)cc3)c12 | 101 |
| Nc1[nH]nc2nc3ccccc3nc12 | 98.8 |
| CN(C)c1ccc(C=C2C(=O)Nc3ccccc32)cc1 | 97.8 |
| O=C(Nc1cccc(Nc2cc(Nc3cccc(C(F)(F)F)c3)ncn2)c1)C1CC1 | 98.9 |
| COc1cc2ncnc(Nc3ccc(Oc4ccccc4)cc3)c2cc1OC | 85.9 |
| NCCNc1ncc(C(N)=O)c(Nc2cccc(C(F)(F)F)c2)n1 | 86.5 |

Set 3 — technique: CellTiter-Glo; concentration: 1 µM; relative to: DMSO
Cell line: normal-adjacent epithelium patient-derived organoids sample E
| SMILES | viability |
| --- | --- |
| Cc1cc2c(-c3ccco3)cnc(N[C@H]3CCN(C)C[C@@H]3C(=O)NC3CCCCC3)c2[nH]c1=O | 108% |
| CCCCNc1ncc(-c2ccc(CN3CCOCC3)cn2)c(NC2CCC(O)CC2)n1 (stereo not drawn) | 120% and 128% |
| CN1CCN(Cc2cc(NC(=O)c3ccc4c(c3)CN(c3ccccc3)CC4)cc(C(F)(F)F)c2)CC1 | 117% and 71.3% |
| O=C(NCc1ccccc1)c1ccc(S(=O)(=O)NCc2ccccc2)cc1 | 150% and 123% |
| Cc1ccc(NC(=O)Nc2cc(C(F)(F)F)ccc2F)cc1Nc1ccc2c(c1)NC(=O)/C2=C\c1ccc[nH]1 | 59.3% |

Set 4 — observed: binding; technique: competition with immobilised ligand; concentration: 1 µM
Compound: CN1CCN(C(=O)c2ccc(NC(=O)Nc3ccc(N(C)c4ccnc(Nc5ccc(CS(C)(=O)=O)cc5)n4)cc3)cc2)CC1
| target | remaining binding |
| --- | --- |
| Ephrin type-A receptor 5 (EPHA5, Homo sapiens, UniProt P54756) | 99% |
| Mitogen-activated protein kinase kinase kinase kinase 5 (MAP4K5, Homo sapiens, UniProt Q9Y4K4) | 32% |
| Serine/threonine-protein kinase TAO2 (TAOK2, Homo sapiens, UniProt Q9UL54) | 76% |

Mixed results — observed: binding; action: competitor; technique: NanoBRET; cell line: HEK293
| SMILES | target | conditions | scale | normalized BRET |
| --- | --- | --- | --- | --- |
| Cn1cnc(Cn2ccc3ccc(CNCc4[nH]c5ccccc5c4[C@H]4NC(=O)c5ccc(O)cc54)cc32)c1 | GTPase KRas (KRAS, Homo sapiens, UniProt P01116, G12C) | 339 pM, 1 h | relative to: vehicle and 20 µM BI compound | 93.4% and 93.8% and 87.8% |
| C=C(F)C(=O)N1CCN(c2nc(OC[C@@H]3CCCN3C)nc3c2CCN(c2cccc4cccc(Cl)c24)C3)C[C@@H]1CC#N | GTPase HRas (HRAS, Homo sapiens, UniProt P01112) | 2.22 µM |  | 98.1% and 101% |

A few entries again (set 4):
| target | remaining binding |
| --- | --- |
| Ephrin type-A receptor 5 (EPHA5, Homo sapiens, UniProt P54756) | 99% |
| Serine/threonine-protein kinase TAO2 (TAOK2, Homo sapiens, UniProt Q9UL54) | 76% |
| Mitogen-activated protein kinase kinase kinase kinase 5 (MAP4K5, Homo sapiens, UniProt Q9Y4K4) | 32% |
